Measurements collected from several papers.
Each numbered part is a random draw from the data of one study; scales do not carry over between parts.

Block 1
Target: RNA binding protein fox-1 homolog 2, RRM domain, GST-SBP tag (RBFOX2, Homo sapiens, UniProt O43251-10, residues 100-194)
Technique: RNA Bind-n-Seq
Molecule type: RNA
Medium: in vitro
Tested at: 365 nM
Setting: natural RNA segment, single round, ends assumed
Reference: no-protein control
Reading: higher = stronger binding
Quantity: RBNS enrichment (R)
Residues (chain): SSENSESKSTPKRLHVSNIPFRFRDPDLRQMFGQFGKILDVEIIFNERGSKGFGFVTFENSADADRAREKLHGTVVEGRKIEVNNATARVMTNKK
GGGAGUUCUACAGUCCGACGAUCGCGGCUGAGCUGCUGGCUCUCUGGAGACUCCGUAGAGAACCCAGCGAUCAAAAACCCACUGUGAUGUGUUGGUGGCUUUGUCUGAAGCACCAGGGAGUUUGGUGAAGCUAUGGAAUUCUCGGGUGCCAA: 0.792
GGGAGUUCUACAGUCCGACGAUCGGGCCUUGUUUUGCAUGUUGAUGAAGAACUACACAAAGAAAACUAAUAUAGUUAAAAGUCAGCUUGCCUUCCCGUAGUAGAAGCAGGUUCUUGGAAGUUACAAUUUAAGGUGGAAUUCUCGGGUGCCAA: 5.04
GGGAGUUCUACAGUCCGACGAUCAGAGGUAAUAGCAUCUGUGGGACACAGCAGAAUUGUACAAGUGUACAAUUAGUGUGUAGCAGAGCACAGCAGUUACGAGCUUGUAUAACGAGGACUCUGGAUCCAGAUUUUGGAAUUCUCGGGUGCCAA: 0.335
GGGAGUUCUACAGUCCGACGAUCUCAUUUAUGCCCACUUUAAAAUGUAGGGAGUCUGUUUCGGCCCCUUUUCUGGAGUAUAUUUGUACCAUAUUGUAACAAAAUGAUCCUGGCCACAAAAUAAAACACACACUUGGAAUUCUCGGGUGCCAA: 0.373
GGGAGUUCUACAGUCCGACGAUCCUGCCGCCUUGGUUCCUGCAGUGCCCUGCGGUGCGGACAGGACUGCAUCUGAUAGUACACAGACUGAUGCACGUAGCAUUUCCCAAACUGUUUGGACCUCAGGACCUUUUUGGAAUUCUCGGGUGCCAA: 0.364
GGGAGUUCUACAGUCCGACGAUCCCCACCCAAUACCAUUUCUUACCCUCUAAUCCUACCUGAUCUUUAACAAAGCAUUAAUAAUUCUAAGGAUAAUCUCUAUUUUGUUGUGCUUUUUUGUAACUGUUUUAAAUUGGAAUUCUCGGGUGCCAA: 0.75
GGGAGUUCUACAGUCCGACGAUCGAAAUUGUGGGGGGAAGGUAGGAGGCACAUCAAUAAAGAGGAAACCACCAAGCUGAACUGAAUUUUGCUUGUGUUGCUCCCCUCGUCCCGCUGAUUUUAAGUCUUUCCAAUGGAAUUCUCGGGUGCCAA: 0.293
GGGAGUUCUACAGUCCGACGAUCAAUAUGAUCACUUCAUACUUCUAAAUCAGAAAUAGGAAGAUUAAAACCACAGAACAGUUUGUGAUUUCUAUUGCUGUAGCUAGGUAUCUUACUCUGUCCACUCUUGUUCAUGGAAUUCUCGGGUGCCAA: 0.414
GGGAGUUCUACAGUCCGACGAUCAGGUUGCUGAGAAAUGUAAGAGGAGCUGAAGUACAUUGUAUGCAGUUACUGACUGCUUUAGGCAUAGUCUCCGCAGAAGCCUCGUGUGUCCAGUGCUGGGUGUUUGGGUGUGGAAUUCUCGGGUGCCAA: 0.464

Block 2
Target: Histone acetyltransferase KAT6A, winged helix 2, GST fusion (KAT6A, Homo sapiens, UniProt Q92794, residues 85-181)
Technique: protein binding microarray
Molecule type: double-stranded DNA, one strand shown
Medium: in vitro
Tested at: not given
Setting: 8-mer, flanks averaged, mean of 2 arrays, mostly near background
Reference: not given
Reading: higher = stronger binding
Quantity: E-score
Residues (chain): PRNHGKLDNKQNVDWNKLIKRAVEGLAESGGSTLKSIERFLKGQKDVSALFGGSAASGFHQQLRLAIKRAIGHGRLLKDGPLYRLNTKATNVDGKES
AAGGTACT: -0.0678
GTCATGCA: -0.0197
CGAAAAGA: 0.107
ACTGGTGG: -0.142
ACAAAGTG: -0.0413
GGACCTCC: 0.15
CTATACAC: -0.303
GTGGATCA: 0.0127
TGCCTTAA: -0.0345
CGCAACGA: 0.139
ACCGATCC: -0.0492
GCATTCAC: 0.0846
GAAAGAAA: 0.131
GTTGATCA: 0.0525
CCGTGGCA: 0.125
AGCTGCAA: -0.0734
AAGTAATA: -0.177
AACCACCC: -0.062
CGATAGCA: -0.0822
CAACACTC: 0.0943
CTATGGCA: -0.14
AGGACGTA: -0.107
ATGTCGTA: -0.0257
AGTAAGTG: -0.127
GACAGGGC: 0.0701

Block 3
Target: Interferon regulatory factor 5, full length, phosphomimetic (IRF5, Homo sapiens, UniProt Q13568-2, residues 1-514, S451D/S453D/S456D/S462D)
Technique: protein-binding microarray
Molecule type: double-stranded DNA, one strand shown
Medium: in vitro
Tested at: 940 nM top
Setting: 60-bp whole probe
Together with: salmon DNA 0.4 mg/ml
Reference: random background probes
Reading: higher = stronger binding
Quantity: fitted relative affinity
Constant ends, left off below: GCCTAGCAC … GTCTTGATTCGCTTGACGCTGCTG
TTTGGACTGGGTATCGGTTAGTGCTAG: 3.18 z-score
AGCAGGGCTGATGCTCCCCTGTGCTAG: -1.21 z-score
TTAGATATCAGTTTGGATTAGTGCTAG: 0.0219 z-score
TCACTTCCCCTCTCTTTCACTGTGCTA: 1.83 z-score
GACGAACTGAGTATCGATACGTGCTAG: 5 z-score
TCAAATCTCACTCTGTCACTGTGCTAG: 0.905 z-score
TTAGATTTCATTCTCGATTAGTGCTAG: 3.58 z-score
TTAGGACTGGGTATCGTTTAGTGCTAG: 1.1 z-score
TGAGATATCAGTTTCGATTAGTGCTAG: 7.78 z-score
CACGGTATCCTTATCCTGACGTGCTAG: 0.0611 z-score
GACGGTTTTGACACTGGGGACGTGCTA: 0.736 z-score
TTAGGACTGGACACTGGGTTTGTGCTA: -0.226 z-score
GACGGTTTCCTTCTCCTAACGTGCTAG: 1.77 z-score
GACGGTCTCCTTCTCCTGAAGTGCTAG: 0.355 z-score
TTAGAACTGGGGTTTCGTTTAGTGCTA: 3.44 z-score
GACGAACTGAGGCTCGAGACGTGCTAG: -0.349 z-score
TCAGGACTGGACTATCGGTTAGTGCTA: -0.128 z-score
GACAGACTGGACACTGGGGACGTGCTA: -0.401 z-score
TTAGGACTGAACACTGGGTTAGTGCTA: -0.374 z-score
GTAGGTTTCGGTTTCGGTTAGTGCTAG: 16.4 z-score
GACGGCCTGCTTCTCCTGACGTGCTAG: -0.291 z-score
GACCATTTCAGTCTCGAGACGTGCTAG: 1.93 z-score
TCATTTTTCTGATCCATACTGTGCTAG: 1.08 z-score

Block 4
Target: RING finger protein unkempt homolog, zinc fingers 1-6, SBP tag (UNK, Homo sapiens, UniProt Q9C0B0, residues 30-357)
Sequence of UniProt Q9C0B0 (30-357, looked up): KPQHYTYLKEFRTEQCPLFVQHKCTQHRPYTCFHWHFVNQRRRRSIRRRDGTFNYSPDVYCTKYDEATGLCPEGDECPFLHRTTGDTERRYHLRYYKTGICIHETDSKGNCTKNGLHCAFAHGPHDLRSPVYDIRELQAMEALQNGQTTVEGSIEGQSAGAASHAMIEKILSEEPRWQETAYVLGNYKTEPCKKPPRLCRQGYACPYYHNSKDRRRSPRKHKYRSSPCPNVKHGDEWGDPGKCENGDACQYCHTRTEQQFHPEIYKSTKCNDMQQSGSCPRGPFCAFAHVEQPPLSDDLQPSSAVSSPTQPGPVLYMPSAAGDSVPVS
Technique: RNA Bind-n-Seq
Molecule type: RNA
Medium: in vitro
Tested at: 100 nM
Setting: RNA with constant flanks, vertebrate orthologous sites, ends assumed
Reference: input RNA pool
Reading: higher = stronger binding
Quantity: bound/input enrichment
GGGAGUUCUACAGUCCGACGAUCGUGUUGGUGCAGAGCAUUCUGUACCAUUGCUCCUCAUCCCUUCUUCAUACCAACUGUCUCUAGUUGUAGGAAUUUAAUAUUUUUUAAAGUUUUACAUUGCUGUAUAUUCAAAGAUUUGUUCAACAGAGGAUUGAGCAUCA: 0.636 ratio
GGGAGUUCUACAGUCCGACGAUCAAAUAUCCCAGUUUACUGUGUUGAGUUGGCAUUGUACAGAAAUAAACAGCCAUAUUGGUCUAGAAACGUUAAACUUAAUUUUUUUCCAUUUGUACAGGGGUAACGCACUGUAUUAAAUAUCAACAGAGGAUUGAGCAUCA: 0.779 ratio
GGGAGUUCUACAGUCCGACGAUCCCCCGAUUUUAGAUGUGAUAUCUAGGCUUUCAUUCCAGUUUGUUUUUGUCUUUUCUUGUUUAGAUAACCAGUCUUUUAAAUUCUUGCAUUUUAGUAAGAAAGCAACCUUUUUAUGGAUGUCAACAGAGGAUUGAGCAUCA: 0.86 ratio
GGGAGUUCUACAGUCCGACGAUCCUAAAGCUUUGUGUUUGGCUGCACCUGCAUAAGCUGCUACAAAUAGAAUAAAGAAUUUCAUAGCCUGUAUCUAUCAUUUUAGAUGCAUGGAAAAAAUGGGCUUUGCACACAAUGGGUUUGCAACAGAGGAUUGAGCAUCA: 1.9 ratio
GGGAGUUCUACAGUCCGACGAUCGAAAAUGGCUUCUGCUCUAUUAAAAAGUAAAAAUUGUCCUCCAAAUAUAAAACUCCUUAAUAGAUAUUUUUGAAAUUAGAAUCUUUAAAUUUUAUAAAUCAGCUGUUGCCACUACACAACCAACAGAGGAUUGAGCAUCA: 4.46 ratio
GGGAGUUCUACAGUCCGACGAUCCCCAUGGCUGCUUUGUAUCACCUCAGUGACUUACAGUCCCCCUUGGCAUUUAGUUGGUACUAGAGCCAGUCAUCCUUAACAAAUCUUUUCACAUUUUAUUUCUUUCACAUGUAGUCAUCUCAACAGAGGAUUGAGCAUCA: 2.53 ratio
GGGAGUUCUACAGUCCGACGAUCCAACUCAAUGGUUGAGGGUUCUGAACUCAAAAAGGUUCGCUCAAACUCCAGGAUUUAUCAUCGGUACUUUUUGUUGGAUGCUGACAUGCAAAGCCUGAGGUGGGAGCCAUCUAAGAAGGACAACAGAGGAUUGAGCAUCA: 0.189 ratio
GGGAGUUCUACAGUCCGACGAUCGAAGACAGUGGUUGUACAGUAUCAUUUCAUUUAAAAACUAUAAACAUUUUGUUUUGAAGCUAGGCAUUUAAACUGGAAUAGCUAUUAUACCCCUGAGAAUGGGGCAGUUGUGCCCUUGACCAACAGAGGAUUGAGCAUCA: 0.777 ratio
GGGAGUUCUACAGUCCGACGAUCUAUUAUUCAUUUGAUUAAAAUUAUUUAGAUAAGAAGUUAUUGUGUAUGUUUGCUUUCAAACAGCCUCCCUAUUUUUCUUCCUUUGUGAGGUCUCUCAUGCAUAGCAGAAUCUAUUAUGGACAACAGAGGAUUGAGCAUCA: 0.454 ratio
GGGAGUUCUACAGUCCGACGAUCCACAUCUGGUGAUAUUUGGCCUGGCCUCUCAGCUUAUGAUAAUAGUCCCAGAUCACCCCAUAGUCCUUCACCUAUUGCUACACCACCUAGUCAGAGUUCAUCUUGCUCUGAUGCCCCCAUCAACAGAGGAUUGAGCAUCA: 1.02 ratio
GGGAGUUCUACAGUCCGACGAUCUCGUGCCCCACUCUUGUGAGAGGGAGUGGGGAAUGCAGGUGACCCUCAGCUAUUCCAAUCCAGUUUUCUUUUUAAGAAUUACUGUAUUUAUUAUGACGAUGGUGACUCCCCGGUGCACAGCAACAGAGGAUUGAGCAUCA: 0.56 ratio

Excerpt of the above (block 2):
GGACCTCC: 0.15
CTATACAC: -0.303
GTGGATCA: 0.0127
TGCCTTAA: -0.0345
